Results of several laboratories.
Compare with care: the assays were run in different laboratories. Values joined by “and” are separate records of one study, mostly repeats; a detail may differ.
Sequence of UniProt Q99640 (whole entry, looked up): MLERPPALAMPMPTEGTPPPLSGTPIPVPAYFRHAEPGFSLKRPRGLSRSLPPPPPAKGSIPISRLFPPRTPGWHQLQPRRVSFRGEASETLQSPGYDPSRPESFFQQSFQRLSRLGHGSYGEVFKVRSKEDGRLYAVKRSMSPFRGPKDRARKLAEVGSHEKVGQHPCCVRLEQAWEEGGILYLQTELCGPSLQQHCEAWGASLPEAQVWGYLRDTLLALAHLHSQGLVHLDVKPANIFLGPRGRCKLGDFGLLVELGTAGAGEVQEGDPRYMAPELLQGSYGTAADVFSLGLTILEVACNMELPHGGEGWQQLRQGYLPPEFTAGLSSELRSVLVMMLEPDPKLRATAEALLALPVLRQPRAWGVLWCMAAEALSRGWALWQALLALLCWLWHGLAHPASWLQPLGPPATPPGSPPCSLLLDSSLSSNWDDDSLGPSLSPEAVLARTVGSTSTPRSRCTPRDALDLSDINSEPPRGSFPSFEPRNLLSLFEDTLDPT

Compound = Cc1ncsc1-c1ccc(C(CO)NC(=O)C2CC(O)CN2C(=O)C(NC(=O)c2ccc(COc3c(-c4c(C)c(F)cc5[nH]ncc45)c(C4CC4)cc4c(N5CC6CC5CN6)nc(OC5CCOCC5)nc34)cc2)C(C)C)cc1 (stereo not drawn); tested on = AsPC-1; assay = in-cell ELISA; setting = 3 µM, individual replicates; endpoint = phospho-ERK1/2 level; result = 10.4% and 6.48% and 4.38% and 8.09% and 11.2% and 7.98%
Compound = Cc1ccc(O)c(C)c1-c1cnc2[nH]c(-c3cnc(N4CCC5(CC4)CC(N4CCN(c6ccc(NC7CCC(=O)NC7=O)cc6F)CC4)CO5)nc3)cc2c1C#N (stereo not drawn); tested on = PKMYT1 (Homo sapiens, UniProt Q99640); system = HCC1599; setting = 0.0169 nM; endpoint = degradation; result = 24.6%
Compound = O=C(O)C1(O)Oc2ccccc2N(Cc2ccccc2)C1=O (stereo not drawn); tested on = Arabidopsis thaliana; system = Col-0; setting = 100 µg/mL, seed germination, single repetition; endpoint = hypocotyl length; result = 1.35 cm and 1.33 cm and 1.32 cm and 1.31 cm
Compound = Cc1ccc(O)c(C)c1-c1cnc2[nH]c(-c3cnc(N4CCC(CN5CCC(c6ccc(NC7CCC(=O)NC7=O)cc6F)CC5)CC4)nc3)cc2c1C#N (stereo not drawn); tested on = HCC1569; assay = CDK1 Thr14 phosphorylation, in-cell western; setting = 1000.00 nM; how to read = lower = stronger inhibition; endpoint = phospho-CDK1 (Thr14) level; result = 102 a.u.
Compound = CN1C(=O)C(O)(C(=O)O)Oc2cc(F)ccc21 (stereo not drawn); tested on = Arabidopsis thaliana; system = Col-0; setting = 12.5 µg/mL, seed germination, single repetition; endpoint = hypocotyl length; result = 1.96 cm and 1.97 cm and 1.9 cm and 2 cm and 1.93 cm
Compound = Cc1nc(C)c(C=[N+]([O-])C(C)(C)C)nc1C; assay = HPLC-ECD; system = MPTP mouse model, striatum; setting = 30 mg/kg; endpoint = striatal dopamine content; result = 6.65 ng/mg tissue and 5.62 ng/mg tissue and 6.88 ng/mg tissue and 5.76 ng/mg tissue and 7.13 ng/mg tissue and 5.25 ng/mg tissue and 6.36 ng/mg tissue
Compound = Cc1ncsc1-c1ccc(C(CO)NC(=O)C2CC(O)CN2C(=O)C(C(C)C)n2cc(-c3ccc(COc4c(-c5c(C)c(F)cc6[nH]ncc56)c(C5CC5)cc5c(N6CC7CC6CN7)nc(OC6CCOCC6)nc45)cc3)nn2)cc1 (stereo not drawn); system = KP-4 xenograft, mouse; setting = 30 mg/kg once weekly, day 11; endpoint = tumour volume; result = 315 mm3 and 303 mm3 and 326 mm3 and 396 mm3 and 426 mm3
Compound = Cc1ccc(O)c(C)c1-c1cnc2[nH]c(-c3cnc(N4CC5(CC(CN6CCN(c7ccc(NC8CCC(=O)NC8=O)cc7F)CC6)C5)C4)nc3)cc2c1C#N (stereo not drawn); tested on = HCC1569; assay = CDK1 Thr14 phosphorylation, in-cell western; setting = 111.11 nM; how to read = lower = stronger inhibition; endpoint = phospho-CDK1 (Thr14) level; result = 90.3 a.u. and 89.8 a.u.
Compound = Cc1ncsc1-c1ccc(C2(NC(=O)C3CC(O)CN3C(=O)C(NC(=O)c3ccc(COc4c(-c5c(C)c(F)cc6[nH]ncc56)c(C5CC5)cc5c(N6CC7CC6CN7)nc(OC6CCOCC6)nc45)cc3)C(C)(C)C)CC2)cc1 (stereo not drawn); tested on = AsPC-1; assay = in-cell ELISA; setting = 300 nM, individual replicates; endpoint = phospho-ERK1/2 level; result = 65.2% and 56.3% and 63.9% and 97.5% and 66.4% and 56.7%
Compound = O=C(O)C1(O)Oc2cc(Cl)ccc2N(Cc2ccccc2)C1=O (stereo not drawn); tested on = Arabidopsis thaliana; system = Col-0; setting = 6.25 µg/mL, seed germination, repetition mean; endpoint = hypocotyl length; result = 2.06 cm
Compound = Cc1ncsc1-c1ccc(C2(NC(=O)C3CC(O)CN3C(=O)C(NC(=O)c3ccc(COc4c(-c5c(C)c(F)cc6[nH]ncc56)c(C5CC5)cc5c(N6CC7CC6CN7)nc(OC6CCOCC6)nc45)cc3)C(C)C)CC2)cc1 (stereo not drawn); tested on = AsPC-1; assay = in-cell ELISA; setting = 1 µM, individual replicates; endpoint = phospho-ERK1/2 level; result = 9.4% and 8.04% and 12.1% and 14.5% and 15% and 7.55%
Compound = Cc1ccc(O)c(C)c1-c1cnc2[nH]c(-c3cnc(N)nc3)cc2c1C#N; tested on = HCC1569; assay = in-cell western, measured: CDK1 phospho-Thr14; setting = 1.52 nM; endpoint = pCDK1 (Thr14) level; result = 13.9% and 15.1%
